Results collected from several papers.
Protocols differ between the studies behind these lines. ± marks the error that the study gave.
Cell line: HepG2

NC(=S)N/N=C1\C(=O)N(CCn2ncc3c(=O)[nH]cnc32)c2ccc(Cl)cc21
IC50 (cell growth, SRB; 72 h): 5.48 ± 3.78 mg/L

CCOC(=O)c1c(-c2ccc(OC)cc2)oc2ccc(O)c(CN3CCN(Cc4cn(C[C@H]5O[C@H](O[C@H]6O[C@H](CO)[C@@H](O)[C@H](O)[C@H]6O)[C@H](O)[C@@H](O)[C@@H]5O)nn4)CC3)c12
IC50 (cytotoxicity, resazurin; 18 h): > 200 µM

Nc1nc2c(ncn2[C@H]2C[C@H](O)[C@@H](CO)O2)c(=O)[nH]1
IC50 (cell viability, MTT; 24 h): 322 µM

COc1ccc(-c2oc3ccc(O)c(CN4CCCCC4)c3c2C(=O)NCc2cn(C[C@H]3O[C@H](O[C@H]4O[C@H](CO)[C@@H](O)[C@H](O)[C@H]4O)[C@H](O)[C@@H](O)[C@@H]3O)nn2)cc1
IC50 (cytotoxicity, resazurin; 18 h): > 200 µM

N[C@@H](CCC[C@H](N)C(=O)O)C(=O)O
IC50 (cell viability, MTT; 24 h): > 10000 µM

CN1CCC(NC2CCc3[nH]c4c(C(N)=O)ccc(-c5ccccc5Cl)c4c3C2)CC1 (centres unmarked)
IC50 (cell growth): 0.02 µM

Nc1ncnc2c1ncn2CCN1C(=O)C(=O)c2cc(F)ccc21
IC50 (cell growth, SRB; 72 h): 5.71 ± 3.64 mg/L

C#CCN1CCN(Cc2c(O)ccc3oc(-c4ccc(OC)cc4)c(C(=O)OCC)c23)CC1
IC50 (viability; 18 h): > 200 µM

NCCCCNCCCN
IC50 (cell viability, MTT; 24 h): > 10000 µM

CNC(=O)c1cc(Oc2ccc(NC(=O)Nc3ccc(Cl)c(C(F)(F)F)c3)cc2)ccn1
IC50 (cell growth, SRB; 72 h): 20.9 ± 8.31 mg/L

[NH2][Pt]([NH2])([Cl])[Cl]
IC50 (cell viability, MTT; 72 h): 7.7 ± 0.4 µM

O=C1C(=O)N(CCn2ncc3c(=O)[nH]cnc32)c2ccc(F)cc21
IC50 (cell growth, SRB; 72 h): 20.1 ± 9.95 mg/L

O=C(O)CCc1ccc(O)c(O)c1
IC50 (cell viability, MTT; 24 h): > 10000 µM

CC(=NNC(=O)c1ccncc1)c1ccc(Nc2nnc(-c3ccc(Cl)cc3)c3ccccc23)cc1
IC50 (cell growth, MTT): 0.26 µM

A few entries again:
NC(=S)N/N=C1\C(=O)N(CCn2ncc3c(=O)[nH]cnc32)c2ccc(Cl)cc21
IC50 (cell growth, SRB; 72 h): 5.48 ± 3.78 mg/L

CCOC(=O)c1c(-c2ccc(OC)cc2)oc2ccc(O)c(CN3CCN(Cc4cn(C[C@H]5O[C@H](O[C@H]6O[C@H](CO)[C@@H](O)[C@H](O)[C@H]6O)[C@H](O)[C@@H](O)[C@@H]5O)nn4)CC3)c12
IC50 (cytotoxicity, resazurin; 18 h): > 200 µM
